Published values collected from several papers.
A part holds a random share of what one study measured. Positions count from the first letter of the parent shown.

Set 1
Target: CDC34 UBC core domain (UniProt P49427)
Chain of UniProt P49427 (whole entry, looked up): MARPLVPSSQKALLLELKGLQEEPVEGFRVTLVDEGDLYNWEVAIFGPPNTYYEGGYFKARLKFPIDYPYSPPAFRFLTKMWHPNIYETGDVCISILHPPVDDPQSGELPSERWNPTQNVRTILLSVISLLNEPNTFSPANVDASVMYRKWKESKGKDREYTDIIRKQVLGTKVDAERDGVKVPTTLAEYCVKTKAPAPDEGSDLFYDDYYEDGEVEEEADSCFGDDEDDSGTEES
Technique: yeast two-hybrid
Medium: yeast
Notes: mostly zero background
Baseline: not given
Direction: higher = stronger interaction
Endpoint: lacZ reporter activity
B1: MDM4 RING domain (UniProt O15151); chain MEDCQNLLKPCSLCEKRPRDGNIIHGRTGHLVTCFHCARRLKKAGASCPICKKEIQLVIKVF
B2: RNF19A RING domain (UniProt Q9NV58); chain ISKQIGDFIECPLCLLRHSKDRFPDIMTCHHRSCVDCLRQYLRIEISESRVNISCPECTERFNPHDIR
B3: RBCK1 RING domain (UniProt Q9BYM8); chain SLVLNTEPAECPVCYSVLAPGEAVVLRECLHTFCRECLQGTIRNSQEAEVSCPFIDNTYSCSGKLLEREIK
B4: MAP3K1 RING domain (UniProt Q13233); chain NSIKDEEEQMCPICLLGMLDEESLTVCEDGCRNKLHHHCMSIWAEECRRNREPLICPLCRSKWRSHDFYS
B5: TRIM62 RING domain (UniProt Q9BVG3); chain MACSLKDELLCSICLSIYQDPVSLGCEHYFCRRCITEHWVRQEAQGARDCPECRRTFAEPALAP
B6: UBOX5 RING domain (UniProt O94941); chain EQPGSILGPECASCKRVFSPYFKKEPVYQLPCGHLLCRPCLGEKQRSLPMTCTACQRPVASQDVLR
FDGDVDPDLKCALCHKVLEDPLTTPCGHVFCAGCVLPWVVQEGSCPARCRGRLSAKELN (PDZRN3 RING domain (UniProt Q9UPQ7)): 0
B1 (MDM4 RING domain): 0
B2 (RNF19A RING domain): 0
GSRLQEINDVCAICYHEFTTSARITPCNHYFHALCLRKWLYIQDTCPMCHQKVYIEDDIK (RNF139 RING domain (UniProt Q8WU17)): 0
AVPSGLEENLCKICMDSPIDCVLLECGHMVTCTKCGKRMNECPICRQYVIRAVHVF (RFFL RING domain (UniProt Q8WZ73)): 0
AMYLQENGIDCPKCKFSYALARGGCMHFHCTQCRHQFCSGCYNAFYAKNKC (RNF31 RING domain (UniProt Q96EP0)): 0
GSDDEEIPFKCFICRQSFQNPVVTKCRHYFCESCALQHFRTTPRCYVCDQQTNGVFNPA (RNF113A RING domain (UniProt O15541)): 0
B3 (RBCK1 RING domain): 0
B4 (MAP3K1 RING domain): 0
B5 (TRIM62 RING domain): 0
B6 (UBOX5 RING domain): 0
NLSELTPYILCSICKGYLIDATTITECLHTFCKSCIVRHFYYSNRCPKCNIVVHQTQPLY (PCGF6 RING domain (UniProt Q9BYE7)): 0

Set 2
Target: NFIL3, bZIP domain (human)
Technique: DHFR protein complementation
Medium: yeast
Notes: single substitutions, most at no-binding floor
Baseline: wild-type JUN-FOS pair
Direction: higher = stronger binding
Endpoint: binding fitness
Starting sequence: JUN, bZIP domain (human); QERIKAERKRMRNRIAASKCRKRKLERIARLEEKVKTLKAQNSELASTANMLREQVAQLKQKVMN; partner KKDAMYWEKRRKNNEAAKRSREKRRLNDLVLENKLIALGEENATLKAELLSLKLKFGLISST
R53T: -1.55 natural log
L31K: -1.52 natural log
E54Q: -1.57 natural log
Q41L: -1.45 natural log
Q41D: -1.49 natural log
L31I: -1.33 natural log
E54R: -1.48 natural log
L52E: -1.55 natural log
I28A: -1.42 natural log
A46F: -1.51 natural log
E44P: -1.53 natural log
L38Q: -1.55 natural log
K39E: -1.34 natural log
S47I: -1.54 natural log

Set 3
Target: Prothrombin, mature alpha-thrombin (F2, Homo sapiens, UniProt P00734)
Technique: aptamer microarray, sandwich
Molecule type: DNA with 2'F-ANA
Medium: in vitro
Concentration: 200 nM
Notes: whole 15-mer aptamer, many near background
With: Cy3 exosite-II aptamer, 400 nM
Direction: higher = stronger binding
Endpoint: mean fluorescence intensity
Oligonucleotide: GGTTGGTGTGGTTGG
2'F-ANA at 1 2 3 4 5 6 7 8 9 11 12: 112 a.u.
2'F-ANA at 1 3 6 9 11 12: 371 a.u.
2'F-ANA at 1 5 8 9 10 12: 66.1 a.u.
2'F-ANA at 2 3 5 6 7 8 9 10 11 13: 54 a.u.
2'F-ANA at 2 3 4 6 8 9 10 13 14 15: 152 a.u.
2'F-ANA at 1 3 4 5 6 7 12 13 14 15: 49.3 a.u.
2'F-ANA at 2 3 8 15: 895 a.u.
2'F-ANA at 1 5 6 7 9 10 11 12: 55.6 a.u.
2'F-ANA at 1 3 5 6 8 14 15: 47.1 a.u.
2'F-ANA at 1 2 4 7 8 15: 181 a.u.
2'F-ANA at 1 8 10 12 13 14 15: 48.1 a.u.
2'F-ANA at 1 3 4 5 6 7 8 9 10 12 14: 61.7 a.u.
2'F-ANA at 8 11 12 14: 278 a.u.
2'F-ANA at 1 2 3 4 6 12 13 14: 84.7 a.u.
2'F-ANA at 1 2 6 8 10 14 15: 50.7 a.u.
2'F-ANA at 4 5 8 9 13 14 15: 45.4 a.u.
2'F-ANA at 1 3 7 8 9 13 15: 292 a.u.
2'F-ANA at 4 5 6 14 15: 49.5 a.u.

Set 4
Target: Sal-like protein 4, full length isoform B (SALL4, Homo sapiens, UniProt Q9UJQ4-2, residues 1-616)
Technique: universal PBM
Molecule type: double-stranded DNA, one strand shown
Medium: in vitro
Concentration: not given
Notes: 8-mer, flanks averaged, mean of replicates
Direction: higher = stronger binding
Endpoint: E-score
AAGCCGCG: -0.218
CTCTGTAC: 0.0839
GGAATGGA: -0.117
CATTCACC: 0.0324
ACCTTACC: -0.0101
CATGACAG: -0.11
AACCAGTT: 0.141
AGGCAAAA: 0.124
AAGAAATT: 0.282
AGACGGCG: -0.267
CTAATGGC: -0.0142
GCCATGAA: -0.104
TAAATTGA: 0.271
CTCTAATA: 0.335
ACACGAGG: -0.0759
AGCTTAAT: 0.172
CTTCAGGA: -0.0612
ATAATGAT: 0.347
GGGAGTAC: -0.176
GAGAGAAC: -0.256
CTAAGTTA: 0.226
CTCTACAA: 0.078

Set 5
Target: Histone acetyltransferase KAT6A, winged helix 1, GST fusion (KAT6A, Homo sapiens, UniProt Q92794, residues 1-85)
Technique: protein binding microarray
Molecule type: double-stranded DNA, one strand shown
Medium: in vitro
Concentration: not given
Notes: 8-mer, flanks averaged, mean of 2 arrays, mostly near background
Baseline: not given
Direction: higher = stronger binding
Endpoint: E-score
Target sequence (chain): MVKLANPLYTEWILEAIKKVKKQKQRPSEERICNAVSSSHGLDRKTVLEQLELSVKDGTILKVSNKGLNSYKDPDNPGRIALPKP
ACATAGGC: -0.142
ACATACCC: -0.131
CATAATCG: 0.0169
GTGAATCA: -0.148
CTCCTGTA: -0.00968
AGCGATTC: 0.14
TCGGGCCA: 0.0929
GCGGTGTA: 0.189
AGCCTGCA: -0.118
CGCGAGAC: 0.163
ACATGCTC: -0.0952
CGATTTCA: -0.0423
CTTATCCC: -0.033
ATTATAGC: -0.0906
AAGGCCAA: -0.128
GACTAATA: -0.132
AGCAATAG: -0.0679
AATTTGAC: -0.234
CACAAACC: -0.168
AGGGTGGA: -0.27
AGAACATG: -0.0517
ACCTGACA: -0.269
AATGGCGC: 0.18

Set 6
Target: CCNB3, cyclin fold, Cln2 fusion (human)
Technique: yeast growth competition, sequencing
Medium: yeast
Notes: weak parent motif
Baseline: not given
Direction: higher = stronger binding
Endpoint: normalised enrichment score
Starting sequence: CDC6 docking peptide (human); TLKGRRLVFDNQL; partner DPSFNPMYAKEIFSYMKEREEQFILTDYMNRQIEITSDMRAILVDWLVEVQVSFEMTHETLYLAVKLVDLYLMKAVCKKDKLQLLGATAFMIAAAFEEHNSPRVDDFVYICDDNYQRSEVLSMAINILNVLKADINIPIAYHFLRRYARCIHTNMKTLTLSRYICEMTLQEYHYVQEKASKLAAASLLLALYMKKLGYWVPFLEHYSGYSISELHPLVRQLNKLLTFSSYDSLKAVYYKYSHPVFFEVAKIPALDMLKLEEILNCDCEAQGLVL
TLKGQRLVFDNQL [R5Q]: -0.373
TLKFRRLVFDNQL [G4F]: 0.5
TLKGDRLVFDNQL [R5D]: 0.011
TLKGRRLVFDNVL [Q12V]: 0.319
TLKGRRLVFDNLL [Q12L]: 0.434
TAKGRRLVFDNQL [L2A]: -0.101
TLKGRRLVSDNQL [F9S]: 0.0233
TLKGRQLVFDNQL [R6Q]: 0.057
TLKGRRLVFDNQM [L13M]: -0.0275
TLKGRRLVFDNCL [Q12C]: 0.126
TLKGRRLFFDNQL [V8F]: 0.355
TLKRRRLVFDNQL [G4R]: 0.424
TLKGNRLVFDNQL [R5N]: 0.0213
TLKGRRLVFGNQL [D10G]: -0.45
TLKGRRLVFDCQL [N11C]: 0.556
TLKGRRLVFDNQC [L13C]: 0.543
TLKGRRLVFDNHL [Q12H]: 0.219
TQKGRRLVFDNQL [L2Q]: -0.26
TLKGRRLVFDNQY [L13Y]: 0.364
TLKGRRLVFDYQL [N11Y]: 0.606
TLKGRRAVFDNQL [L7A]: 0.164
TLKGRRYVFDNQL [L7Y]: 0.28
TLKGRVLVFDNQL [R6V]: 0.952
TLKGRRLNFDNQL [V8N]: 0.856
NLKGRRLVFDNQL [T1N]: 0.00278

Some of these lines once more (set 5):
CATAATCG: 0.0169
ACATAGGC: -0.142
AGGGTGGA: -0.27
AGCCTGCA: -0.118
AGCAATAG: -0.0679
CGCGAGAC: 0.163
TCGGGCCA: 0.0929
ATTATAGC: -0.0906
ACCTGACA: -0.269
CACAAACC: -0.168
GACTAATA: -0.132
CTTATCCC: -0.033
ACATGCTC: -0.0952
AATGGCGC: 0.18
AGAACATG: -0.0517
GTGAATCA: -0.148
GCGGTGTA: 0.189
AATTTGAC: -0.234
AAGGCCAA: -0.128
